Results collected from several papers.
Parts stem from different laboratories: compare values within a part only. Positions count from the first letter of the parent shown.

Block 1 — technique: DHFR PCA, deep sequencing; sample: yeast; together with: (+)-ABA 200 µM; baseline: wild-type fitted maximum; reading: higher = stronger binding
Target: ABI1, truncated, D143A, DHFR fusion (Arabidopsis thaliana)
Notes: methotrexate growth selection, single substitutions
Starting sequence: PYL1, truncated, DHFR fusion (Arabidopsis thaliana); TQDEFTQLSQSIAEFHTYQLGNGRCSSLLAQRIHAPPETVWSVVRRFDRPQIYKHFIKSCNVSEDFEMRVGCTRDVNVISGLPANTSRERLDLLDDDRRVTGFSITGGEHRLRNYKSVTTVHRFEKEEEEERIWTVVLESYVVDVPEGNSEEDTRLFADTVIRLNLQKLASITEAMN; partner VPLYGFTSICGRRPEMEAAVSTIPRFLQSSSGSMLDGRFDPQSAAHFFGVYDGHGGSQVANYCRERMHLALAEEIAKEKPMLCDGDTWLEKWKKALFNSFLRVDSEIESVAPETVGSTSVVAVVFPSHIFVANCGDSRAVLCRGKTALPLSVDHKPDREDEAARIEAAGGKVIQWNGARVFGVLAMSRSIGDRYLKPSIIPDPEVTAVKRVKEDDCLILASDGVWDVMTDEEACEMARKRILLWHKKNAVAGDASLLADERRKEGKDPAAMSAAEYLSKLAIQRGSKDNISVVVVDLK
| Variant | relative binding score [%] |
| --- | --- |
| I79E | 85.5 |
| E152N | 92.2 |
| V100A | 102 |
| T1S | 95.2 |
| R46K | 87.9 |
| S11N | 93.8 |
| V62M | 99.5 |
| K116E | 67.9 |
| D97E | 106 |
| N149I | 43.2 |
| D3E | 102 |
| E174W | 55.5 |
| G71C | 36.1 |
| I172Y | 93.7 |
| S150P | 26.1 |
| S87F | 23.4 |
| F15M | 84.3 |

Block 2 — technique: RNA Bind-n-Seq; form: RNA; sample: in vitro; concentration: 200 nM; notes: whole 134-nt RNA, ends assumed; together with: 150 mM KCl; baseline: input library; reading: higher = stronger binding
Target: Ras GTPase-activating protein-binding protein 1, full length (G3BP1, Homo sapiens, UniProt Q13283)
Chain of UniProt Q13283 (whole entry, looked up): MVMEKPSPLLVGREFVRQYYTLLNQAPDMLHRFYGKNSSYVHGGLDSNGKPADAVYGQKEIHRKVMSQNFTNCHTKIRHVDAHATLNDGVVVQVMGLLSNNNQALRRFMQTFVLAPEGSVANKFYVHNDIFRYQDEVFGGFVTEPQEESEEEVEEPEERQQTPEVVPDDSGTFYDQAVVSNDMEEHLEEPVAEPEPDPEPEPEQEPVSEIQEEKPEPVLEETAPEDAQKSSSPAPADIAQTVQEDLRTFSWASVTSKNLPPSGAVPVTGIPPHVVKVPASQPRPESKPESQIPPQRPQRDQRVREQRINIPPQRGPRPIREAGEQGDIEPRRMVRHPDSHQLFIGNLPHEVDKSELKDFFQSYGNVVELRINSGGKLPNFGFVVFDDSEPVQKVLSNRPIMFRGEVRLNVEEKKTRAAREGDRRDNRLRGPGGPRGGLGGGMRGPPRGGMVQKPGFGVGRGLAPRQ
Constant ends, left off below: GGGAGUUCUACAGUCCGACGAUC … UGGAAUUCUCGGGUGUCAAGG
| Strand | log2 enrichment |
| --- | --- |
| GGUGGAAUCCAUAGAGCUCCCCAUGGACAACAAGACCAAUAAGAGGCGUGGGUUCUGCUUUAUUACCUUUAAGGAAGAAGAACCAGUGAA | -0.0881 |
| CCUCAAGUCCUGUGCUACACAUCGUAUGUACCGAAUCGGAAAAAGGUGGUGGAAAGUAUUAUGUUACGCCGUUCGGAUCUGCACUUCCAG | -0.0675 |
| GUCCUGUGCUACACAUCGUAUGUACCGAAUCGGGGUUUGGGGUUUUUUUGGGGAGGGGAAAGUAUUAUGUUACGCCGUUCGGAUCUGCAC | 0.678 |
| UAACUAUAGAGGAGGAUCUGAUGGAUAUGGCAGUGGACGUGGAUUUGGGGAUGGCUAUAAUGGGUAUGGAGGAGGACCUGGAGGUGGCAA | 0.408 |
| ACCAUGCAGGUGGGCAUCUUUGGGAAGUGGGGCAAGGGCGGGAUAGGGAGGGGGGUAACACUUUGGGAACAGGUGGUCCCAGGUCGUUUC | 1.14 |
| UCCUCAAGUCCUGUGCUACACAUCGUAUGUACCGAAUCGGGUGGUGGUGGGGAAAGUAUUAUGUUACGCCGUUCGGAUCUGCACUUCCAG | 0.55 |
| UCAAGUCCUGUGCUACACAUCGUAUGUACCGAAUCGGGAAAGGAAAGGAAAGGGAAAGUAUUAUGUUACGCCGUUCGGAUCUGCACUUCC | -0.891 |
| CAAGUCCUGUGCUACACAUCGUAUGUACCGAAUCGGAAAAGGGAAAAGGAAAAGGAAAGUAUUAUGUUACGCCGUUCGGAUCUGCACUUC | -0.974 |
| CUCAAGUCCUGUGCUACACAUCGUAUGUACCGAAUCGGGAAAGGGAGGGAGGGAAAGUAUUAUGUUACGCCGUUCGGAUCUGCACUUCCA | 1.37 |

Block 3 — target: BATF3, bZIP domain (human); technique: DHFR protein complementation; sample: yeast; baseline: wild-type JUN-FOS pair; reading: higher = stronger binding
Notes: single substitutions, most at no-binding floor
Starting sequence: JUN, bZIP domain (human); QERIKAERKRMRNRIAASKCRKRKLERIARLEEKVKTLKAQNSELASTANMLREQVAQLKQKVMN; partner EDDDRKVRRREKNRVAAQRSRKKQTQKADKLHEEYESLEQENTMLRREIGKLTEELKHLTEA
| Variant | binding fitness |
| --- | --- |
| L38H | -0.212 natural log |
| E54K | 0.131 natural log |
| Q41P | -0.948 natural log |
| N42R | 0.134 natural log |
| I28Q | 0.275 natural log |
| V56R | -0.0794 natural log |
| Q41F | -1.01 natural log |
| R30G | 0.331 natural log |
| E54T | 0.159 natural log |
| L38D | -1.24 natural log |
| E33H | 0.118 natural log |
| K39R | 0.287 natural log |
| L59R | 0.189 natural log |
| K36V | 0.247 natural log |
| S47G | 0.221 natural log |
| K39A | 0.109 natural log |
| K36C | 0.331 natural log |

Block 4 — target: CCNB2, cyclin fold, Cln2 fusion (human); technique: yeast growth competition, sequencing; sample: yeast; notes: weak parent motif; baseline: not given; reading: higher = stronger binding
Starting sequence: RBL1 docking peptide (human); GSAKRRLFGEDPP
| Variant | normalised enrichment score |
| --- | --- |
| GSCKRRLFGEDPP [A3C] | 0.573 |
| GSAKRRLFCEDPP [G9C] | 0.561 |
| ESAKRRLFGEDPP [G1E] | -0.173 |
| GSAKGRLFGEDPP [R5G] | -0.0625 |
| SSAKRRLFGEDPP [G1S] | 0.176 |
| GSAKRRKFGEDPP [L7K] | 0.447 |
| GSAKRRLFGEDQP [P12Q] | 0.0135 |
| GDAKRRLFGEDPP [S2D] | -0.232 |
| GSAKRRLQGEDPP [F8Q] | -0.0275 |
| GSAKRRLFSEDPP [G9S] | 0.521 |
| HSAKRRLFGEDPP [G1H] | 0.058 |
| GSAKRRLFGEDPG [P13G] | -0.0394 |
| GSAKRRLFGEDIP [P12I] | 0.249 |
| GSAKRRQFGEDPP [L7Q] | 0.261 |
| GSAKRRLFGEDLP [P12L] | 0.0826 |
| GSAKRRLFGEDCP [P12C] | -0.149 |
| GSAKRRLFGEDTP [P12T] | 0.569 |
| GSAKRRLVGEDPP [F8V] | -0.000904 |

Block 5 — technique: DNA-protein interaction ELISA; form: double-stranded DNA, one strand shown; sample: in vitro, bacterial lysate; concentration: not given; notes: whole dsDNA probe, crude lysate protein; baseline: highest signal in screen; reading: higher = stronger binding
Target: Probable WRKY transcription factor 11, DNA-binding domain (WRKY11, Arabidopsis thaliana, UniProt Q9SV15, residues 228-325)
Construct (chain): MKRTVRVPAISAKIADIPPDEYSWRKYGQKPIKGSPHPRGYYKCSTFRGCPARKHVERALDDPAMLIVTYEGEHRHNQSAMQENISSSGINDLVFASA
| Strand | relative absorbance |
| --- | --- |
| AAAAAACATAACCGCAAAATCCCTACAAAA | 13.8 % of maximum |
| AAAAAACGGGATTCGAAACTTTTTGTAAAA | 13.5 % of maximum |
| AAAAAAAGTCTGCGGCTGCAGGGCGGAAAA | 47.5 % of maximum |
| AAAAAATCTTCACCTCACTTCGGTTTAAAA | 18.2 % of maximum |
| AAAAAAAACTCCCATACTACAACCGAAAAA | 13.3 % of maximum |
| AAAAAAGCTCATGGCCCTGAGGATCTAAAA | 18.7 % of maximum |
| AAAAAACCCGGTTGGAGAAAATAATTAAAA | 13.3 % of maximum |
| AAAAAAAATTAGTCTCTTCGTCTCCCAAAA | 14.4 % of maximum |
| AAAAAACTCGACATAGAATGCGGAAAAAAA | 16.7 % of maximum |
| AAAAAAGGTCTGGACGATCACCGGGAAAAA | 13.8 % of maximum |
| AAAAAATGGTACTCAGAGTTATAGACAAAA | 16.1 % of maximum |
| AAAAAATTAGCTTATCCTTGCTTGTGAAAA | 16.1 % of maximum |
| AAAAAAAAGCGTTACATCATATGGAAAAAA | 15 % of maximum |
| AAAAAAAGCTTCTATAGCTCCATGGAAAA | 12.7 % of maximum |
| AAAAAAGGGTTTAGATGTCCTTCAAAAAAA | 15 % of maximum |

Block 6 — target: CRIPT, C-terminal peptide; technique: DHFR complementation, deep sequencing; sample: yeast; baseline: wild type; reading: higher = weaker binding
Notes: single substitutions, model-inferred values
Starting sequence: ERBIN, PDZ domain 1 (human); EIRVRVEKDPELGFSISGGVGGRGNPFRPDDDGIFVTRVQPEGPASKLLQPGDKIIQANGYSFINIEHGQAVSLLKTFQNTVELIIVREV; partner TKNYKQTSV
| Variant | binding free energy change [kcal/mol] |
| --- | --- |
| F78E | 0.0888 |
| P44Q | 0.292 |
| P44C | 0.476 |
| E11K | -0.273 |
| D9L | 0.401 |
| K47Q | 0.0257 |
| K76I | 0.33 |
| G43E | 0.555 |
| I86D | 1.1 |
| G52A | 0.0225 |
| K47T | 0.0737 |
| E67A | 0.0549 |
| V72N | 1.72 |
| V36N | 0.827 |
| S62V | 0.109 |

Single results of other studies
| Substance | target | assay | test system | conditions | scale | measurement | value |
| --- | --- | --- | --- | --- | --- | --- | --- |
| PhoQ, residues 284 288 289 292 302 303 TNSAEL | PhoP, residues 12 14 15 18 19 NMSFL (Escherichia coli, UniProt P23836) | Sort-seq, refers to: YFP reporter | E. coli | PhoQ-PhoP variant library, together with: 10 µM Mg2+ | baseline: high Mg2+ state, higher = stronger signaling | fold induction | 11.7 |

For quick reference, copied from above (block 1):
| Variant | relative binding score [%] |
| --- | --- |
| V100A | 102 |
| T1S | 95.2 |
| R46K | 87.9 |
| S11N | 93.8 |
| V62M | 99.5 |
| K116E | 67.9 |
| D97E | 106 |
| N149I | 43.2 |
| D3E | 102 |
| E174W | 55.5 |
| G71C | 36.1 |
| I172Y | 93.7 |
| S150P | 26.1 |
| S87F | 23.4 |
| F15M | 84.3 |
